# Results collected from several papers.
# ± marks the error that the study gave.
# U2AF2: U2AF2 148-342 (Homo sapiens, UniProt P26368)
# UniProt P26368, sequence (whole entry, looked up): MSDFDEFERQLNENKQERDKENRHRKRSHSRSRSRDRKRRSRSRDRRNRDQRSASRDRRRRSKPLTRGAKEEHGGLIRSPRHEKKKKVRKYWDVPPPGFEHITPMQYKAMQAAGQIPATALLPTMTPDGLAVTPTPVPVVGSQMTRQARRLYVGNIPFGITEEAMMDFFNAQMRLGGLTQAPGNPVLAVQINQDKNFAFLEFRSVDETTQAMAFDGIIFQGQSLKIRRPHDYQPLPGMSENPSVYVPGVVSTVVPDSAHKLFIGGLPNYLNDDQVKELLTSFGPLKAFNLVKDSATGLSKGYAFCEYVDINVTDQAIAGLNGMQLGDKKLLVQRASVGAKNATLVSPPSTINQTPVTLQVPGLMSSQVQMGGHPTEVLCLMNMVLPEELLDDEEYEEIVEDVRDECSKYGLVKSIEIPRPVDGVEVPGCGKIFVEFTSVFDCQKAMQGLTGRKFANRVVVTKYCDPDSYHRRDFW
Substance,tested on,assay,system,conditions,scale,measurement,result
insulin degludec,,,human,"subcutaneous, 0.4 IU/kg, 2 FC level, fat content group, single dose, reference formulation",,Cmax,18.3 ± 3.8 ng/mL
durvalumab,,,"human cancer patients, plasma","intravenous, 1500 mg, cycle 4 day 1, added: adavosertib 150 mg twice daily",,Ctrough geometric mean,114 µg/mL
pegcetacoplan,,item: skin and subcutaneous disorders,patients with PNH,"dose not given, phase Ib trial",,number of TEAEs,36
adrenomedullin,,RP-HPLC,HALO RP-amide column,"25 µM, formic acid/acetonitrile, 25 min gradient",,retention time,5.46 min
CUUCUGUCU (ssRNA),U2AF2,sequencing of bound RNA,RNA,motif only,,Kd,5.11 µM
insulin aspart,,"ELISA after PEG precipitation, item: free insulin aspart","human, type 1 diabetes, serum","subcutaneous, dose not given, least squares mean",,Cmax,318 pmol/L
insulin,,LC-MS/MS,human serum pool,"high pool, two freeze-thaw cycles, added: C-peptide 8.70 ng/mL",,concentration,9.7 ng/mL
insulin icodec,,,"human mild hepatic impairment, serum","subcutaneous, 1.5 U/kg single dose",reference: normal hepatic function,AUC(0-inf) increase,13%
human myosin-Vb,CYB5R4 knockout human cells,"PP6 interaction, 3xFLAG-PP6C IP-MS",,concentration not given,reference: CYB5R4 KO over parental,log2 fold change,0.82
AUUCUUACU (ssRNA),U2AF2,sequencing of bound RNA,RNA,motif only,,Kd,5.52 µM
ACDDQNPWRAYLDLLFPTDTLLLDLLW,,ex vivo fluorescence imaging,"peptide, BALB/c mice, 4T1 tumour-bearing, 4T1 tumour","intravenous, 5 nmol, 2 h post-injection",higher = more uptake,mean fluorescence intensity,4660 ± 720 a.u.
Neuropeptide Y,,RP-HPLC,HALO RP-amide column,"25 µM, formic acid/methanol, 25 min gradient",,retention time,18.1 min
ACEQNPIYWARYADWLFTTPLLLLDLALLVDADEGT,,ex vivo fluorescence imaging,"peptide, BALB/c mice, 4T1 tumour-bearing, liver","intravenous, 5 nmol, 48 h post-injection",higher = more uptake,mean fluorescence intensity,357 ± 24.5 a.u.
insulin icodec,,"log-log regression of Cmax,ss vs dose","Chinese type 2 diabetes patients, serum","subcutaneous, once weekly",,dose-proportionality slope,0.85
ACEEQNPWARYLEWLFPTETLLLEL,,ex vivo fluorescence imaging,"peptide, BALB/c mice, 4T1 tumour-bearing, 4T1 tumour","intravenous, 5 nmol, 48 h post-injection",higher = more uptake,mean fluorescence intensity,517 ± 129 a.u.
"clusterin, human",CYB5R4 knockout human cells,"PP4 interaction, 3xFLAG-PP4C IP-MS",,concentration not given,reference: CYB5R4 KO over parental,log2 fold change,-1.69
